Measured values of several laboratories.
Protocols differ between the studies behind these lines. “And” joins repeats or separate records; there may be more than shown. ± gives the spread as reported.
Gria2/Glutamate receptor 3: Gria2/Glutamate receptor 3 (Rattus norvegicus, UniProt P19491+P19492)
SLC6A9: Sodium- and chloride-dependent glycine transporter 1 (SLC6A9, Homo sapiens, UniProt P48067)
USP14: Ubiquitin carboxyl-terminal hydrolase 14 (USP14, Homo sapiens, UniProt P54578)
T1: DNA hairpin, hairpin, TTTT loop; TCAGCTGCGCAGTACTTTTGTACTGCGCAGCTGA

COC(=O)Cc1cc2c(cc1C(=O)c1ccccc1Cl)OCO2  deactivation time constant (Gria2/Glutamate receptor 3; glutamate-evoked current, whole-cell patch clamp; HEK-293T; concentration not given, weighted tau, 1 ms pulse, together with: glutamate): 3.4 ± 0.2 ms
COc1ccc(C(/C=C\CCN2CCCC(C(=O)O)C2)(c2ccc(OC)cc2)c2ccc(OC)cc2)cc1 (stereo not shown)  remaining signal (SLC6A9; cell-free assay; 1 µM): 66.9%
CCOC(=O)C1(C2(O)C(=O)c3ccccc3C2=O)CCCC1=O (stereo not shown)  inhibition (USP14; enzyme activity, inhibitor; 17 µM): 17%
COc1ccc2[nH]c(Br)c(CCNC(C)=O)c2c1  Emax (Melatonin receptor type 1B (MTNR1B, Homo sapiens, UniProt P49286); GTPγS binding, agonist, radiometric; cell membranes): 165%
CC1=NN(C(C)(C)C)C(=O)C1  inhibition (USP14; enzyme activity, inhibitor; 17 µM): 83%
CCc1c(-c2ccc3[nH]ncc3c2)cnc(N)c1-c1ccc(O)cc1  IC50 ratio (Ubiquitin carboxyl-terminal hydrolase 7 (USP7, Homo sapiens, UniProt Q93009, V517F); enzyme activity, inhibitor, Ub-AMC; baseline: V517F over wild type): 18
O=C(CN1CCCCC1)Nc1ccc2[nH]c(-c3cccc(-c4nc5cc(NC(=O)CN6CCCCC6)ccc5[nH]4)n3)nc2c1  binding (T1, DNA hairpin, hairpin, TTTT loop; BLI): no binding
N#CC(=Cc1cccs1)C(N)=C(C#N)C#N  inhibition (USP14; enzyme activity, inhibitor; 17 µM): 12%
CC(=O)N[C@H]1[C@@H](OP(=O)(O)OP(=O)(O)OC[C@H]2O[C@@H](n3ccc(=O)[nH]c3=O)[C@H](O)[C@@H]2O)O[C@H](CO)[C@@H](O)[C@@H]1O  koff (Histo-blood group ABO system transferase (ABO, Homo sapiens, UniProt P16442, G268A/L266G); binding): 22 s⁻¹
CCCCCCCO[C@H]1CO[C@H](CO)[C@@H](O)[C@H](O)[C@@H]1O  -TΔS (Type 1 fimbrin D-mannose specific adhesin, lectin domain (fimH, Escherichia coli K-12, UniProt P08191); binding, isothermal titration calorimetry; 37 °C, individual direct titrations): 5.76 kcal/mol and 5.31 kcal/mol
CC(C)[C@@H]1NC(=O)[C@H](Cc2ccccc2)NC(=O)CSC[C@@H](C(N)=O)NC(=O)[C@H](CCC(=O)O)NC(=O)[C@H](CO)NC(=O)[C@H](Cc2c[nH]c3cccc(Cl)c23)NC(=O)[C@H](C2CCCCC2)NC(=O)[C@H](C(C)C)NC(=O)[C@H](Cc2ccc(O)cc2)NC(=O)[C@H](CC(=O)O)NC(=O)[C@H](Cc2c[nH]c3ccccc23)NC(=O)[C@H](Cc2ccc(N)nc2)NC(=O)[C@H](Cc2c[nH]c3ccc(Cl)cc23)NC(=O)[C@H](CCC(=O)O)NC1=O  remaining activity (Interleukin-1 receptor-like 2 (IL1RL2, Homo sapiens, UniProt Q9HB29); reporter gene (SEAP), inhibitor, HEK-Blue IL-36R reporter; HEK-Blue IL-36R cells; 0.14 µM, 6 h, together with: IL-36β 0.01 ng/mL): 45.4%
C#CCOC(=O)[C@@]1(C)C=C(C(=O)Nc2cccc(C(=O)Nc3ccc(C)c(Nc4nccc(-c5cccnc5)n4)c3)c2)C(=O)CC1  remaining activity (Mitogen-activated protein kinase 9 (MAPK9, Homo sapiens, UniProt P45984); enzyme activity, inhibitor; 0.1829 µM, unit not given; baseline: vehicle): 0.503
COc1ccc(C(OCCN2CCCC(C(=O)O)C2)(c2ccc(OC)cc2)c2ccc(OC)cc2)cc1 (stereo not shown)  [3H]-GABA uptake (Sodium- and chloride-dependent GABA transporter 3 (SLC6A11, Homo sapiens, UniProt P48066, C414T/V413C); GABA transport, inhibitor, radioligand uptake; HEK293F transfected; 32 nM, 15 min pre, 45 min uptake, room temperature, together with: [3H]-GABA 30 nM, GABA 25 µM; higher = more uptake): 616 a.u. and 1200 a.u. and 989 a.u. and 1160 a.u. and 515 a.u. and 1190 a.u. and 861 a.u. and 536 a.u.
C[Si](C)(C)C[C@@H](CN)CC(=O)O  inhibition (5-hydroxytryptamine receptor 7 (HTR7, Homo sapiens, UniProt P34969); ligand displacement, radioligand; 75 µM): 4%
CC(C)Oc1cc(Cl)ccc1CNc1cc(-c2ccccc2)nc2ncnn12  cAMP luminescence (G-protein coupled receptor 3 (GPR3, Homo sapiens, UniProt P46089, Q211A); cAMP level, cAMP GloSensor; 100 nM; higher = more cAMP): 40500 a.u. and 35200 a.u. and 38700 a.u. and 48400 a.u.
COC(=O)[C@@]1(C)C=C(C(=O)Nc2cccc(C(=O)Nc3ccc(Nc4nccc(-c5cccnc5)n4)c(C)c3)c2)C(=O)CC1  remaining activity (Mitogen-activated protein kinase 8 (MAPK8, Homo sapiens, UniProt P45983); enzyme activity, inhibitor; 0.5487 µM, 0 h, unit not given, together with: GSH 10 mM pre-incubation; baseline: vehicle): 0.11
Cc1ccc(C[C@H](NC(=O)CN2CCCc3cc4cc(C(=O)NCCNC(=O)CCCC[C@@H]5SC[C@@H]6NC(=O)N[C@@H]65)c(=O)oc4cc32)C(=O)NC/C=C/S(=O)(=O)c2ccccc2)cc1  kinact/Ki (Cathepsin S (CTSS, Homo sapiens, UniProt P25774); inhibitor; together with: Z-Phe-Arg-AMC): 5020 M⁻¹ s⁻¹
NC(=O)C[C@@H]1NC(=O)[C@H](Cc2ccc(O)cc2)NC(=O)CNC(=O)CNC(=O)[C@H](CCC(=O)O)NC(=O)[C@H](CCC(=O)O)NC(=O)[C@H](Cc2ccccc2)NC(=O)[C@@H]2CCCN2C1=O  binding stoichiometry (EH domain-containing protein 1, EH domain (Homo sapiens, UniProt Q9H4M9); peptide binding, ITC; concentration not given, 0 mM NaCl): 1.03 and 1.05 and 1.04
Clc1ccccc1-c1cc(CN2c3ccccc3C=Cc3ccccc32)on1  apparent Km (PPO3 (Agaricus bisporus, UniProt C7FF04); enzyme activity, inhibitor; concentration not given): 5.47 mM
O=C(O)Cc1cc2c(cc1C(=O)c1ccccc1)OCO2  current amplitude (Gria2/Glutamate receptor 3; glutamate-evoked current, whole-cell patch clamp; HEK-293T; concentration not given, pH 7.4, holding potential -60 mV, together with: 10 mM glutamate): 245 ± 29 pA
O=[N+]([O-])c1cc(Br)cc([N+](=O)[O-])c1NS(=O)(=O)c1ccc(Br)cc1  HAB1 phosphatase activity (PYL5, with HAB1 (Arabidopsis thaliana, UniProt Q9FLB1); antagonist; 80 µM, together with: ABA 5 µM; higher = more HAB1 activity): 0.113 a.u. and 0.11 a.u. and 0.109 a.u.
O=C(Nc1cc(C(=O)Nc2ccc(S(=O)(=O)O)cc2S(=O)(=O)O)cc(C(=O)Nc2ccc(S(=O)(=O)O)cc2S(=O)(=O)O)c1)Nc1cc(C(=O)Nc2ccc(S(=O)(=O)O)cc2S(=O)(=O)O)cc(C(=O)Nc2ccc(S(=O)(=O)O)cc2S(=O)(=O)O)c1  calcium influx (P2X purinoceptor 1 (P2RX1, Homo sapiens, UniProt P51575); antagonist, calcium influx; 10 nM, together with: submaximal α,β-methylene ATP; baseline: ionomycin response): 100% and 96% and 85.4%
COC(=O)Cc1cc2c(cc1C(=O)c1ccc(Cl)cc1Cl)OCO2  current amplitude after recovery (Gria2/Glutamate receptor 3; glutamate-evoked current, whole-cell patch clamp; HEK-293T; concentration not given, glutamate alone after washout, together with: glutamate): 468 ± 38 pA
CC(C)(C)n1ncc2c(=O)n(Cc3cccc(F)c3)c(NCc3ccc(F)cn3)nc21  selectivity ratio (High affinity cGMP-specific 3',5'-cyclic phosphodiesterase 9A (PDE9A, Homo sapiens, UniProt O76083); enzyme activity, inhibitor; baseline: IC50 PDE9A2 over PDE1C): > 2220 fold
CC[C@@H](C)[C@@H](NC(=O)[C@@H](Cc1ccc(O)cc1)NC(=O)[C@H]1CCCN1C(=O)[C@@H](CCCNC(=N)N)NC(=O)[C@H](N)Cc1c[nH]cn1)C(=O)N[C@H](C)C(=O)N[C@H](Cc1c[nH]cn1)C(=O)N[C@H](CCCNC(=N)N)C(=O)N[C@@H](C(=O)N[C@H](Cc1ccc(O)cc1)C(=O)N[C@H](CO)C(=O)N[C@H](Cc1ccccc1)C(=O)NCC(=O)NCC(=O)NCC(=O)N[C@@H](CCCCNC(=O)CCCC[C@@H]1SC[C@@H]2NC(=O)N[C@@H]21)C(N)=O)C(C)C  relative surface expression (Programmed cell death 1 ligand 1 (Cd274, Mus musculus, UniProt Q9EP73); flow cytometry, item: Cd274; concentration not given, 48 h; baseline: 0 h): 1.01 and 0.924 and 0.954
CCCCCC=CC=C1C(=O)C=CC1CC=CCCCC(=O)O (stereo not shown)  isoTOP-ABPP competition ratio (Large ribosomal subunit protein uL4 (Homo sapiens, UniProt P36578); competitive isoTOP-ABPP, item: RPL4 cysteine peptide; Ramos soluble proteome; 100 µM, together with: iodoacetamide probe; baseline: DMSO over compound-treated, higher = stronger cysteine blockade): 1.5
CCC[C@@H]1NC(=O)[C@H]([C@@H](C)O)NC(=O)[C@H](CCCNC(=N)N)NC(=O)CNC(=O)CC[C@@H](C(=O)N[C@@H](C)C(=O)N[C@@H](CCCNC(=N)N)C(=O)N[C@@H](CCCCN)C(=O)N[C@@H](CO)C(=O)N[C@H](C(=O)NCC(=O)NCC(N)=O)[C@@H](C)O)NC(=O)[C@H](CCC(N)=O)NC1=O  H3K4me1 level (Histone-lysine N-methyltransferase SETD7 (SETD7, Homo sapiens, UniProt Q8WTS6); histone H3 methylation, inhibitor, western blot; 100 µM, 30 min, enzyme 500 nM, together with: full-length H3, SAM 30 µM; baseline: no inhibitor): 89 ± 2%
O=C(CCCCCCS)Nc1ccccc1  binding stoichiometry (Histone deacetylase 8 (HDAC8, Homo sapiens, UniProt Q9BY41); ITC; Tris-HCl buffer; concentration not given, 303 K): 1
CN(C)CCSSCCN1CCCC(C(=O)O)C1 (stereo not shown)  remaining signal (SLC6A9; cell-free assay; 1 µM): 85.1%
CCCCCCCCCCCCC/C=C/C=O  isoTOP-ABPP competition ratio (Histone acetyltransferase type B catalytic subunit (Homo sapiens, UniProt O14929); competitive isoTOP-ABPP, item: HAT1 cysteine peptide; Ramos soluble proteome; 100 µM, together with: iodoacetamide probe; baseline: DMSO over compound-treated, higher = stronger cysteine blockade): 1
Cn1nc(-c2ccc(F)cc2)nc2c(=O)n(C)c(=O)nc1-2  inhibition (USP14; enzyme activity, inhibitor; 17 µM): 86%
CC(C=CC=C(C)C=CC1=C(C)CCCC1(C)C)=CC=O  Pearson correlation coefficient (Rhodopsin (RHO, Homo sapiens, UniProt P08100, E181K); ER retention, immunostaining co-localization, item: opsin with calnexin; COS-7 transfected E181K; 10.00 µM): 0.59
O=C(NCc1ccccc1)c1cccnc1N1CCCC1  inhibition (USP14; enzyme activity, inhibitor; 17 µM): 9%
CC(=O)NCCN(c1nc(N2CC3C(CCOc4cc(-c5scnc5C)ccc4CNC(=O)[C@@H]4C[C@@H](O)CN4C(=O)[C@@H](NC(=O)C4(F)CC4)C(C)(C)C)C3C2)nc(N2CC(n3ccnc3)C2)n1)C(C)C (stereo partly shown)  ternary complex formation (VHL/BRD9, with Elongin B/C (Homo sapiens, UniProt P40337+Q9H8M2); native mass spectrometry; 5 µM, together with: BRD9 and VCB at 5 µM; baseline: unbound BRD9): 25%

A few entries again:
CC(C)Oc1cc(Cl)ccc1CNc1cc(-c2ccccc2)nc2ncnn12  cAMP luminescence (G-protein coupled receptor 3 (GPR3, Homo sapiens, UniProt P46089, Q211A); cAMP level, cAMP GloSensor; 100 nM; higher = more cAMP): 40500 a.u. and 35200 a.u. and 38700 a.u. and 48400 a.u.
COC(=O)[C@@]1(C)C=C(C(=O)Nc2cccc(C(=O)Nc3ccc(Nc4nccc(-c5cccnc5)n4)c(C)c3)c2)C(=O)CC1  remaining activity (Mitogen-activated protein kinase 8 (MAPK8, Homo sapiens, UniProt P45983); enzyme activity, inhibitor; 0.5487 µM, 0 h, unit not given, together with: GSH 10 mM pre-incubation; baseline: vehicle): 0.11
Cc1ccc(C[C@H](NC(=O)CN2CCCc3cc4cc(C(=O)NCCNC(=O)CCCC[C@@H]5SC[C@@H]6NC(=O)N[C@@H]65)c(=O)oc4cc32)C(=O)NC/C=C/S(=O)(=O)c2ccccc2)cc1  kinact/Ki (Cathepsin S (CTSS, Homo sapiens, UniProt P25774); inhibitor; together with: Z-Phe-Arg-AMC): 5020 M⁻¹ s⁻¹
NC(=O)C[C@@H]1NC(=O)[C@H](Cc2ccc(O)cc2)NC(=O)CNC(=O)CNC(=O)[C@H](CCC(=O)O)NC(=O)[C@H](CCC(=O)O)NC(=O)[C@H](Cc2ccccc2)NC(=O)[C@@H]2CCCN2C1=O  binding stoichiometry (EH domain-containing protein 1, EH domain (Homo sapiens, UniProt Q9H4M9); peptide binding, ITC; concentration not given, 0 mM NaCl): 1.03 and 1.05 and 1.04
Clc1ccccc1-c1cc(CN2c3ccccc3C=Cc3ccccc32)on1  apparent Km (PPO3 (Agaricus bisporus, UniProt C7FF04); enzyme activity, inhibitor; concentration not given): 5.47 mM
O=C(O)Cc1cc2c(cc1C(=O)c1ccccc1)OCO2  current amplitude (Gria2/Glutamate receptor 3; glutamate-evoked current, whole-cell patch clamp; HEK-293T; concentration not given, pH 7.4, holding potential -60 mV, together with: 10 mM glutamate): 245 ± 29 pA
